Results pooled from the literature.
Lines come from different studies, so protocols differ. Numbers after ± are the reported error.

O=C([O-])CN1CCN(CC(=O)[O-])CCN(CC(=O)NCC2CCC(C(=O)NC(Cc3ccc4ccccc4c3)C(=O)NCCCCC(NC(=O)NC(CCC(=O)O)C(=O)O)C(=O)O)CC2)CCN(CC(=O)[O-])CC1.[44Sc+3] (centres unmarked)
residence time (PET/CT dosimetry; human patients, kidneys; mean of 4 patients): 0.26 h

C#CCOc1ccc(/C=C2\SC(=O)N(CC(=O)NCc3ccccc3)C2=O)cc1
correlation volume (inverse Kirkwood-Buff integrals; binary solvent mixture; concentration not given, 298.15 K, mole fraction x1 0.75): 5170 cm³/mol

COC(=O)c1ccc(CCc2cc3cc4nc(c(OC)c5[nH]c(cc6nc(cc2[nH]3)CC6(C)C)cc5CCCNC(=O)OC(C)(C)C)C(=O)C4(C)C)cc1
internal conversion yield (DMF; room temperature): 0.32

[64Cu+2].c1cnc(CNCc2ccc(CN3CCCN4CCNCCCN(CC4)CC3)cc2)nc1
tissue uptake (CXCR4; NOD/SCID mouse, U87 and U87-stb-CXCR4 xenografts, spleen; iv, 240 min, ex vivo): 12.8 ± 1.43 %ID/g

N=C(N)NCCC[C@@H]1NC(=O)[C@H](Cc2c[nH]c3ccccc23)NC(=O)[C@@H](CC2CCCCC2)NC(=O)[C@@H]2CCCN2C(=O)[C@@H](NC(=O)CCc2ccccc2)CCCNC1=O
K21 (two-compartment model; C57BL/6J mouse, plasma brain; subcutaneous, 1 mg/kg single dose): 0.61 h⁻¹

O=[11C](N1CCC(CNS(=O)(=O)c2ccc(Cl)cc2)CC1)n1cncn1
washout ratio (PET; Sprague-Dawley rat, brain; intravenous; relative to: SUV 5 min over SUV 60 min): 1

CC(C)c1cnc(-c2cc(Cl)ccc2F)cc1Nc1ccncc1C(=O)NC(CO)CO
patients with treatment-related adverse event (monotherapy, item: blood alkaline phosphatase increased; human patients; oral, dose not given, grade 2, phase I A): 0%

CCCC[C@H](NC(C)=O)C(=O)N[C@H]1CC(=O)NCCCC[C@@H](C(=O)N[C@@H](C(=O)N2CCC[C@@H]2C(N)=O)C(C)C)NC(=O)[C@H](Cc2c[nH]c3ccccc23)NC(=O)[C@H](CCCN=C(N)N)NC(=O)[C@@H](Cc2ccc3ccccc3c2)NC(=O)[C@@H]2CCCN2C1=O
Cmax (dogs, plasma; subcutaneous, 0.75 mg/kg once daily, day 5): 2600 ± 400 ng/mL

COc1cc(CNC(=O)C[C@H](C)CCC=C(C)C)ccc1OCc1cn(-c2cccc([N+](=O)[O-])c2)nn1
growth percent (MDA-MB-468 breast cancer cells; SRB; 10 µM, 48 h): 56.6%

O=C([O-])CN1CCN(CC(=O)[O-])CCN(CC(=O)NCCc2ccc3c(c2)C2C=CCC2C(c2cc4c(cc2Br)OCO4)N3)CCN(CC(=O)[O-])CC1.[111In+3] (centres unmarked)
tumour to tissue ratio (mice with Hec50 tumour xenograft; 4 h; relative to: tumour over blood): 2.08

CCCC[C@H](NC(=O)[C@H](CC(C)C)N(C)C(=O)CNC(=O)[C@@H](NC(=O)[C@H](Cc1ccccc1)NC(=O)[C@H](CCCCN)NC(=O)[C@@H](N)CC(=O)O)C(C)C)C(N)=O
heart rate change (anaesthetised Sinclair minipigs; IN, 100 µg/kg; relative to: baseline): 5.51 ± 13.9%

NC(=O)c1ccc(C(=O)NOCc2ccc(Sc3cccc(Cl)c3)c(C(F)(F)F)c2)cc1
Vz (male ICR mouse, plasma; intravenous, 10 mg/kg): 0.276 L/kg

CC(C)(O)c1ncc([S@](N)(=O)=NC(=O)Nc2c3c(cc4c2CCC4)CCC3)s1
Tmax (healthy human; oral, 10 mg once daily, day 1, capsule formulation, median): 1 h

O=C(CCc1ccc(CNC(C(=O)OC2CCCC2)C2CCCCC2)cn1)NO (centres unmarked)
AUC(0-t) (human, plasma; oral, 40 mg single dose, geometric mean): 152 ng·h/mL

CN(C)CCn1c2ccc([N+](=O)[O-])cc2c(=O)n1Cc1ccccc1
selectivity index (Leishmania amazonensis; promastigotes, MHOM/BR/77/LTB0016; relative to: CC50 macrophages over IC50 promastigotes): 5

COc1cc(OC)cc(C2=C3C(C)=C(I)C(/C=C/c4c[nH]c5ccccc45)=[N+]3[B-](F)(F)n3c(/C=C/c4c[nH]c5ccccc45)c(I)c(C)c32)c1
Stokes shift (DMSO): 785 cm⁻¹

C=CC(=O)Nc1cc(Nc2nccc(-n3ccc4nc(OC)ccc43)n2)c(OC)cc1N(C)CCN(C)C
concentration (BALB/c nude mouse, H1975 intracranial tumour, brain tumour; oral, 60 mg/kg, 1 h): 5060 ng/g

OCc1cn(Cc2ccc(-c3noc(-c4ccc(OCC[18F])c(C(F)(F)F)c4)n3)cc2)nn1
tracer uptake (rat, heart; intravenous, 1 h): 1.05 %ID/g

Cc1[nH]c(/C=C2\C(=O)Nc3ccc(F)cc32)c(C)c1NC(=O)CCN1CCN(C)CC1
MRT(0-t) (Beagle dog, both sexes, plasma; oral, 3 mg/kg): 18.6 ± 4.47 h

CCOC(=O)CN1CCN(CC(=O)OCC)CCN(Cc2cc(-c3nc4ccccc4s3)cc(OC)c2O)CC1
pKa4 (UV-Vis pH titration; 25 °C, ionic strength 0.1 M NaCl): 11.4

C[C@H](NC(=O)[C@H](C)NC(=O)[C@H](C)NC(=O)[C@H](CCCNC(=N)N)NC(=O)[C@H](CCCNC(=N)N)NC(=O)[C@H](C)NC(=O)[C@H](C)NC(=O)[C@H](C)NC(=O)[C@H](C)NC(=O)[C@H](CCCNC(=N)N)NC(=O)[C@H](CCCNC(=N)N)NC(=O)[C@H](C)NC(=O)[C@H](C)NC(=O)[C@H](C)NC(=O)[C@H](C)NC(=O)[C@H](CCCNC(=N)N)NC(=O)[C@H](CCCNC(=N)N)NC(=O)c1ccc2c(c1)C(=O)OC21c2ccc(O)cc2Oc2cc(O)ccc21)C(=O)N[C@@H](C)C(=O)N[C@@H](CCCNC(=N)N)C(=O)N[C@@H](CCCNC(=N)N)C(=O)O
retained fraction (bovine healthy cartilage; 7 days desorption, 1 x PBS): 35%

COC[C@@H](CC(C)C)NC(=O)c1ccc(CO)c(C)c1
metabolite peak area (LC-MS; Sprague-Dawley rat, both sexes, rat liver microsomes; 10 µM of parent drug, 20 min, pH 7.4, together with: NADPH; relative to: parent drug at time zero): 35.7%

C[C@H]1CO[C@@H]2Cn3cc(C(=O)NCc4ccc(F)cc4F)c(=O)c(O[C@@H]4O[C@H](C(=O)O)[C@@H](O)[C@H](O)[C@H]4O)c3C(=O)N12
participants with detectable plasma drug (humans UGT1A1 wild type; intramuscular, dose not given, 4 weeks post-injection): 100%

COc1ccc([C@@H]2CC(=O)c3c(O)cc(O[C@@H]4O[C@H](CO[C@@H]5O[C@@H](C)[C@H](O)[C@@H](O)[C@H]5O)[C@@H](O)[C@H](O)[C@H]4O)cc3O2)cc1O
measured concentration (rat plasma; 0.48 ng/mL, 7 days, -80 °C, long-term storage): 0.47 ± 0.04 ng/mL

Cn1c(=O)oc2ccc(-c3ccc(CC(C#N)NC(=O)C4CNCCCO4)c(F)c3)cc21 (centres unmarked)
WBC count decreased incidence (human; oral, 10 mg once daily, TEAE, multiple ascending dose): 0%

C=CC(=O)Nc1cc(Nc2nccc(-c3cn(C4CC4)c4ccccc34)n2)c(OC)cc1NC
share of radioactivity (radio-HPLC; human male, feces; oral, 110 mg, 48 to 96 h, sample holds 20.06% dose; relative to: sample radioactivity): 0.83%

COc1cc2c(cc1OC)CN(CCCCn1ccc3cc(OCC[18F])ccc31)C2
tracer uptake (male CD-1 mouse, pancreas; intravenous, 280 kBq, 1 h): 39.7 %ID/g

COc1cc(C)c(-c2ccc(O)c3c2C[C@@H](C)N[C@@H]3C)c2cccc(O)c12 (single isomer, unassigned)
compound remaining (metabolic stability; male rat, liver microsomes; 1 µM, 30 min): 36%

COc1cc(CNC(=O)C[C@H](C)CCC=C(C)C)ccc1OCc1cn(-c2ccccc2F)nn1
growth percent (OVCAR-4 ovarian cancer cells; SRB; 10 µM, 48 h): 71.4%

CC[C@H](C)[C@@H]1NC(=O)[C@H](Cc2ccccc2)NC(=O)[C@@H](NC(=O)[C@H](CCCNC(=N)N)NC(=O)[C@H](Cc2ccccc2)NC(=O)[C@H](Cc2ccccc2)NC(=O)[C@H](CCCCN)NC(=O)[C@H](CO)NC(=O)[C@H](CC(C)C)NC(=O)[C@H](CCCNC(=N)N)NC(=O)[C@H](CCSC)NC(=O)[C@H](C)N)CCCCNC(=O)NC[C@@H](C(=O)N[C@@H](CCCNC(=N)N)C(=O)N[C@@H](CCCCN)C(=O)N[C@@H](CCCCN)C(=O)O)NC(=O)[C@H](CC(C)C)NC1=O
melting temperature (circular dichroism; 2.5 mM DPC): 60.9 °C

CCOc1ccc2c(c1)C(C)=CC(C)(C)N2c1cc(OCC)cc2c1NC(C)(C)C=C2C
highest tissue residue (LC-MS/MS; Holstein cattle, subcutaneous fat; oral in feed, 50 mg/kg complete feed ethoxyquin, 42 days): 112 ng/g

C[N+]1(CC(=O)OC2CCCCCCCCCCC2)CCCCC1
half-life (mouse, plasma; intraperitoneal, 2.5 mg/kg, single dose): 1.2 h

CCOC(=O)CCC(=O)Oc1ccc(/C=C/C(=O)/C=C(O)/C=C/c2ccc(OC(=O)CCC(=O)OCC)c(OC)c2)cc1OC
hydrolysis rate constant ratio (dog plasma; 1.5 µM; relative to: plasma over buffer pH 7.4): 60

C=CC(=O)Nc1cc(Nc2nccc(-c3cn(C4CC4)c4ccccc34)n2)c(OC)cc1N(C)CCNC
share of radioactivity (LC-RAM/HRMS; human male, plasma; oral, 110 mg, 6 h; relative to: total radioactivity): 8.16%

COC(=O)CCn1c2ccc([N+](=O)[O-])cc2c(=O)n1Cc1ccccc1
selectivity index (Leishmania amazonensis; mouse peritoneal macrophages; intracellular amastigotes; relative to: CC50 macrophages over IC50 amastigotes): 8
